# Assay results collected from several papers.
# Every numbered part comes from another study and shows a few of its results, in no order.
# Sequence of UniProt O15294 (whole entry, looked up): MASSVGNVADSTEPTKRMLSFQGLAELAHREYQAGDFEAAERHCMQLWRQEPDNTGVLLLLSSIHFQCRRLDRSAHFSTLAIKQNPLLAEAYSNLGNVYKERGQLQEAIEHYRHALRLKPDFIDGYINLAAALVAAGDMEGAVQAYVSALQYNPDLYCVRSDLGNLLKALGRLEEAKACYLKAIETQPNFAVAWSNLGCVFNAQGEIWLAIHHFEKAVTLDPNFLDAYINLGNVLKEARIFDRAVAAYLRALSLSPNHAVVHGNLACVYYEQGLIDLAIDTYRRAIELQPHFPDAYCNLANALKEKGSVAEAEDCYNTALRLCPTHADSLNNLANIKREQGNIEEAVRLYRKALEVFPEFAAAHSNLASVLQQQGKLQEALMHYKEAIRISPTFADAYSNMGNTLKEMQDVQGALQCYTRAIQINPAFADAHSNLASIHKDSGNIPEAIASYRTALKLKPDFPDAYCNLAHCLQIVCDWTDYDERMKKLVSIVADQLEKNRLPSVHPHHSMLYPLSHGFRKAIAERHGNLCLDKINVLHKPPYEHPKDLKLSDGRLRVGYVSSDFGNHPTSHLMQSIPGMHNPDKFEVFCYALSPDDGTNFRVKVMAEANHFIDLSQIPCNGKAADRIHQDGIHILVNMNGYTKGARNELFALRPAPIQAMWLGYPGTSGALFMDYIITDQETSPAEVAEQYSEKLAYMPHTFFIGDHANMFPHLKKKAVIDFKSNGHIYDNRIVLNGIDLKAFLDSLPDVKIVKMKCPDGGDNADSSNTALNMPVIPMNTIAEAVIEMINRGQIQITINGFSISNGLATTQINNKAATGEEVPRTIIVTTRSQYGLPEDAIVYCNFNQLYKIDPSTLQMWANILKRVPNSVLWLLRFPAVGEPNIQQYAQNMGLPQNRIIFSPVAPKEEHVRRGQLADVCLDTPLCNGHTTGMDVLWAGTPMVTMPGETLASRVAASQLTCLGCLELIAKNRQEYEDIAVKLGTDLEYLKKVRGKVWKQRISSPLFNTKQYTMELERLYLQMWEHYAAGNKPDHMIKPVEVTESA

# Set 1 — technique: RNA Bind-n-Seq; molecule type: RNA; medium: in vitro; concentration: 200 nM; setting: whole 134-nt RNA, ends assumed; together with: 150 mM LiCl; reference: input library; direction: higher = stronger binding; library: 7-deaza-guanosine replaces G
# Target: Ras GTPase-activating protein-binding protein 1, full length (G3BP1, Homo sapiens, UniProt Q13283)
# Sequence of UniProt Q13283 (whole entry, looked up): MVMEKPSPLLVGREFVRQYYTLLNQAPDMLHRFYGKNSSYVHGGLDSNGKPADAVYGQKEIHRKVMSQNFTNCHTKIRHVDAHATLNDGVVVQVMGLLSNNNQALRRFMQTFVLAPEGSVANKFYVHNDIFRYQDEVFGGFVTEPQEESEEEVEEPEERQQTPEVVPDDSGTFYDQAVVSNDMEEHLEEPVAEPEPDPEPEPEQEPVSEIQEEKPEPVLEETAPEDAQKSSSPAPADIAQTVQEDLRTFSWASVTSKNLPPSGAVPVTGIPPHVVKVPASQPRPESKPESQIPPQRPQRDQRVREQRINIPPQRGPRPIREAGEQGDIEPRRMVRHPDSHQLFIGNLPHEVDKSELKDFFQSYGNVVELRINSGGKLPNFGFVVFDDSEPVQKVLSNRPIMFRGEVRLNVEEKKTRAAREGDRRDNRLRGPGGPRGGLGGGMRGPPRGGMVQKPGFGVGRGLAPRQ
# Constant ends, left off below: GGGAGUUCUACAGUCCGACGAUC … UGGAAUUCUCGGGUGUCAAGG
Strand,log2 enrichment
GUCCUGUGCUACACAUCGUAUGUACCGAAUCGGGAAAAAGGGAAAAAAAGGGUUUGGGAAAGUAUUAUGUUACGCCGUUCGGAUCUGCAC,-2.18
UAGCUUUAGAGGAGGAUCUGAUGGAUAUGGCAGUGGACGUGGAUUUGGGGAUGGCUAUAAUGGGUAUGGAGGAGGACCUGGAGGUGGCAA,-0.209
UCAAGUCCUGUGCUACACAUCGUAUGUACCGAAUCGGAAAGGUGGUUUUUUUGGAAAGUAUUAUGUUACGCCGUUCGGAUCUGCACUUCC,0.159
CUCAAGUCCUGUGCUACACAUCGUAUGUACCGAAUCGGUUUUUGGAAAGGUGGAAAGUAUUAUGUUACGCCGUUCGGAUCUGCACUUCCA,-0.0538
UCAAGUCCUGUGCUACACAUCGUAUGUACCGAAUCGGCCCGGGCCCGGGCCCGGAAAGUAUUAUGUUACGCCGUUCGGAUCUGCACUUCC,-0.954
GCAGGAAGUAAAAACAAAUGGAAAAACUUCGGAUAGUGGCAGGGGUGGGGGUUGCUAAGGAAAGGGUGGGAUGGGAGUGGGUAAAGAGUU,0.0635
AAGUCCUGUGCUACACAUCGUAUGUACCGAAUCGGUGGAAAAAAAGGAAAAAAAGGAAAGUAUUAUGUUACGCCGUUCGGAUCUGCACUU,-1.26
UAACUUCAGAGGAGGAUCUGAUGGAUAUGGCAGUGGACGUGGAUUUGGGGAUGGCUAUAAUGGGUAUGGAGGAGGACCUGGAGGUGGCAA,-0.0162

# Set 2 — target: Sox, HMG box (Pigoraptor chileana); technique: Spec-seq; molecule type: double-stranded DNA, one strand shown; medium: in vitro; concentration: not given; setting: whole probe, mean of replicates; reference: not given; direction: lower = stronger binding; constant ends, left off below: GAGTCGTCTCGTCAGCAC … CCGTAGAGCACTCAGGTC
# Target sequence (chain): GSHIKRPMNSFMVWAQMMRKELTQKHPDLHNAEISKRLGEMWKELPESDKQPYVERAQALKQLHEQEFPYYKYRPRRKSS
Strand,relative binding energy [ln ratio]
CATTCGT,0.696
CATCCTA,0.108
CATGCCG,0.684
GTGCGTT,1.58
CATTCGA,0.552
CGAAGTT,1.03
CTGTGTT,-0.625
CATTATT,-2.1

# Set 3 — technique: universal PBM; molecule type: double-stranded DNA, one strand shown; medium: in vitro; concentration: 600 nM; direction: higher = stronger binding
# Target: Sal-like protein 4, full length isoform A (SALL4, Homo sapiens, UniProt Q9UJQ4, residues 1-1053)
# Sequence of UniProt Q9UJQ4 (whole entry, looked up): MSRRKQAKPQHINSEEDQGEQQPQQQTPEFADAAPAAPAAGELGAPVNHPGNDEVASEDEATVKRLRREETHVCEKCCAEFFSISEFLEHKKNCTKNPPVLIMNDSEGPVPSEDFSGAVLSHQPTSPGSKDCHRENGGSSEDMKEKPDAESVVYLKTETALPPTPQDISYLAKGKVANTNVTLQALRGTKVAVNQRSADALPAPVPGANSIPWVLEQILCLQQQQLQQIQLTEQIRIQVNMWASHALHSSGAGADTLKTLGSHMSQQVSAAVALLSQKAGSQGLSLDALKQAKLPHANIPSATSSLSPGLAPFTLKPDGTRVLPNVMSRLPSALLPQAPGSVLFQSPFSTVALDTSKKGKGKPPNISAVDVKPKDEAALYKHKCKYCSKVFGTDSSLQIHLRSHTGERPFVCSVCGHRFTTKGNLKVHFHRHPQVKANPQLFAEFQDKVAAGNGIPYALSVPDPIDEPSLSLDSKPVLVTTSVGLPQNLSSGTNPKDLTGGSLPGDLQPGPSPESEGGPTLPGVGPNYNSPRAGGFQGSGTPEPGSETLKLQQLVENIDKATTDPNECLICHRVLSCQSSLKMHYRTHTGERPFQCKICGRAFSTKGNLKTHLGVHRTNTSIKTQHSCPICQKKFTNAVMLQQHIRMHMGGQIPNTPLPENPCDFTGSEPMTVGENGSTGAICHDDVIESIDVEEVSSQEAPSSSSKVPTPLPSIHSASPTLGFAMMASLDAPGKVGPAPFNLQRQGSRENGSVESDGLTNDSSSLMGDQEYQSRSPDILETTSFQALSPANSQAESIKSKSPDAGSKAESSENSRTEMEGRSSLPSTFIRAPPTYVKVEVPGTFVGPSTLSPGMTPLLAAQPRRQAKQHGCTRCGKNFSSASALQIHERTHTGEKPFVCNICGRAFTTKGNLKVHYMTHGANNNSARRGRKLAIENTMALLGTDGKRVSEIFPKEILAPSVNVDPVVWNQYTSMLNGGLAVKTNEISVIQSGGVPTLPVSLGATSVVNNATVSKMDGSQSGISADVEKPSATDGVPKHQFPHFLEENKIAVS
# Setting: 8-mer, flanks averaged, mean of replicates
Strand,E-score
CCAAAAAC,0.116
CGCAGAAG,-0.124
CAGGTACA,-0.0613
ACGTTGAG,-0.0464
ACTTTGTC,0.0615
AATGAACG,0.226
GTAACGAC,-0.28
TAGAAGAA,0.141

# Mixed results
Molecule,target,assay,system,setting,how to read,quantity,value
SHPIHHSLIKMKHNH,"UDP-N-acetylglucosamine--peptide N-acetylglucosaminyltransferase 110 kDa subunit (OGT, Homo sapiens, UniProt O15294)","binding, phage display NGS",peptide,panning round 2,reference: input library,minimum log2 enrichment ratio,1.92
